Published values gathered from unrelated publications.
Lines come from different studies, so protocols differ. “And” joins repeats or separate records; there may be more than shown.

CC(C)c1ccc(N(C)c2ccc3c(c2)OCC[C@H]3CNc2cnccc2C(=O)O)cc1  IC50 (WM 266-4; cell growth or viability, ATP luminescence; 7 days): 27.5 nM
Br.CCCCCCCCCn1c2c(c(=N)c3c1CCC3)CCCC2  translation activity (Trypanosoma cruzi; reporter mRNA translation, inhibitor, item: capped polyadenylated Renilla luciferase mRNA; cell-free extract; concentration not given; baseline: positive over negative control): 36.5% and 34.1% and 30.7% and 28.8%
Cc1ncsc1-c1ccc(C(C)NC(=O)C2CC(O)CN2C(=O)C(NC(=O)CCCCCCCCCCN2CCCC(Nc3ncc(Cl)c(Nc4ccccc4S(=O)(=O)C(C)C)n3)C2)C(C)(C)C)cc1 (stereo not shown)  log2 fold change (22Rv1; RNA-seq, item: TNFRSF12A mRNA; concentration not given; baseline: DMSO): -1.36
C=C(NC(=O)c1csc(-c2nc3c(cc2O)-c2nc(cs2)C(=O)NC(C(C)O)C(=O)NC(=C(C)OC)c2nc(cs2)C(=O)NC2c4nc(cs4)C(=O)NC(COC(=O)c4c5c6c(cccc6n4O)COC(=O)C(OC4CC(C)(O)C(N(C)C)C(C)O4)C2OC5)c2nc-3cs2)n1)C(N)=O (stereo not shown)  ED50 (Staphylococcus; MRSA-38, mouse systemic infection; intravenous; survival): 0.64 mg/kg
CCc1ccc(CN2CCCC(CNC(=O)c3cccc(OC)c3OC)C2)cc1 (stereo not shown)  translation activity (Trypanosoma cruzi; reporter mRNA translation, inhibitor, item: Renilla luciferase mRNA; cell-free extract; concentration not given, test 2; baseline: positive over negative control): 109% and 99.7%
C=CC(=O)Nc1cccc(Cn2ncc3cnc(Nc4cnn(CCOC)c4)nc32)c1  binding (human BRK; KINOMEscan; 100 nM; baseline: control): 97%
Nc1ncc(-c2cc(-c3cnn(CC(F)(F)F)c3)ncc2F)nc1C(=O)NC1CNCC(F)C1 (stereo not shown)  remaining binding (JNK2; KINOMEscan competition binding; 1 µM; baseline: DMSO control): 100%
COC1CN([C@H]2CC[C@H]([C@@]3(C)Oc4c(Cl)cc(C(=O)NCc5c(SC)cc(C)[nH]c5=O)c(C)c4O3)CC2)C1  log2 fold change (RNA-seq, item: DUSP8 mouse homolog; mouse, HT-1376 xenograft, whole blood; dose not given; baseline: vehicle): 1.88
CN1CCCNC(=O)c2cccc(c2)C(=O)NCCCN(C)CCCNc2cccc3c2C(=O)c2cccc(c2C3=O)NCCC1  log2 fold change (SAS; RNA-Seq, item: KCMF1 mRNA; 1 µM, 6 h; baseline: untreated cells): -0.525
CNS(=O)(=O)Nc1nccc(Cc2c(C)c3ccc(Oc4ncccc4F)cc3oc2=O)c1F  IC50 (HEC-251; cell viability; 7 days): > 1000 nM

Repeated from above:
CC(C)c1ccc(N(C)c2ccc3c(c2)OCC[C@H]3CNc2cnccc2C(=O)O)cc1  IC50 (WM 266-4; cell growth or viability, ATP luminescence; 7 days): 27.5 nM
